{"data": "Assay results gathered from unrelated publications", "note": "A part holds a random share of what one study measured. Positions count from the first letter of the parent shown."}
{"data": "Series 1", "target": "Interferon regulatory factor 7, full length, phosphomimetic (IRF7, Homo sapiens, UniProt Q92985, residues 1-503, S471D/S472D/S475D/S476D/S477D/S483D/S484D/S487D)", "technique": "protein-binding microarray", "molecule type": "double-stranded DNA, one strand shown", "matrix": "in vitro", "tested at": "2200 nM top", "setting": "60-bp whole probe", "with": "salmon DNA 0.4 mg/ml", "relative to": "random background probes", "reading": "higher = stronger binding", "shared flanks, not repeated": "GCCTAGCAC … GTCTTGATTCGCTTGACGCTGCTG", "UniProt Q92985, sequence (whole entry, unmodified, looked up)": "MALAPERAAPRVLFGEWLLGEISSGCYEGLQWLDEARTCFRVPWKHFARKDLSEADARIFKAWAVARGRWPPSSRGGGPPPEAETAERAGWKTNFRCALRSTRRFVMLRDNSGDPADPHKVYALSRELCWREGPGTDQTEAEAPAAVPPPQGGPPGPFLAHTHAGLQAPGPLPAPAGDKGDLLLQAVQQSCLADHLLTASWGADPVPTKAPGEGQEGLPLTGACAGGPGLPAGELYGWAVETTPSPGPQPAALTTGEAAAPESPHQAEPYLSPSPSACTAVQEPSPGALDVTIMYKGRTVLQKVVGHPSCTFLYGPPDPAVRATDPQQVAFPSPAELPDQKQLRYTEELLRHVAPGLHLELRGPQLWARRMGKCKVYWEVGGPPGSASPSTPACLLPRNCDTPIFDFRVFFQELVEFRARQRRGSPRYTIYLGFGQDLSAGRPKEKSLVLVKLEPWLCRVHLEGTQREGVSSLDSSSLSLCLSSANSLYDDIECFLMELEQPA"}
{"Oligonucleotide": "TGAGGACTGGACACTGGGTTAGTGCTA", "fitted relative affinity [z-score]": -1.04}
{"Oligonucleotide": "GGGCCTTGCATGTTTTTGACAGTGCTA", "fitted relative affinity [z-score]": -0.768}
{"Oligonucleotide": "GAGGGTGTTCTTTTCTGTTGGTGCTAG", "fitted relative affinity [z-score]": 1.61}
{"Oligonucleotide": "TTAGGACTGCTTCTCCTCTAGTGCTAG", "fitted relative affinity [z-score]": 0.679}
{"Oligonucleotide": "CACGGTATCCTTTTCCTGACGTGCTAG", "fitted relative affinity [z-score]": 1.53}
{"Oligonucleotide": "GACGGTATCCTACTGCTGAAGTGCTAG", "fitted relative affinity [z-score]": 0.583}
{"Oligonucleotide": "GACGGACAGGGACTGGGGACGTGCTAG", "fitted relative affinity [z-score]": -0.879}
{"Oligonucleotide": "GACTGACTGGACACTGGGGACGTGCTA", "fitted relative affinity [z-score]": -0.535}
{"Oligonucleotide": "TCACCTCTCTGTCCCCCACTGTGCTAG", "fitted relative affinity [z-score]": 1.43}
{"Oligonucleotide": "GACGGTCTCCTTATCCTGTCGTGCTAG", "fitted relative affinity [z-score]": 1.71}
{"Oligonucleotide": "GGACGAGCGACGGTGACACTGTGCTAG", "fitted relative affinity [z-score]": -0.634}
{"Oligonucleotide": "GACGGACTGCTTAGCCTGACGTGCTAG", "fitted relative affinity [z-score]": -0.392}
{"Oligonucleotide": "GACGGTATCGGTATCTGGACGTGCTAG", "fitted relative affinity [z-score]": 0.716}
{"Oligonucleotide": "CCCTAGTTGTGTCTTGCCATGTGCTAG", "fitted relative affinity [z-score]": 1.18}
{"Oligonucleotide": "GACGGTATCGGTCTCCGGACGTGCTAG", "fitted relative affinity [z-score]": 0.385}
{"Oligonucleotide": "TGCTCCTTCTGACATCAACCCGTGCTA", "fitted relative affinity [z-score]": 1.4}
{"Oligonucleotide": "GACGGTTTCGACACTGGTGACGTGCTA", "fitted relative affinity [z-score]": 2.83}
{"Oligonucleotide": "GACGAACTGGCGTATCGAGACGTGCTA", "fitted relative affinity [z-score]": -0.544}
{"Oligonucleotide": "GATGGAAACTTAAACTAGAAAGTGCTA", "fitted relative affinity [z-score]": -0.745}
{"data": "Series 2", "target": "Ras GTPase-activating protein-binding protein 1, C-terminal RGG region (G3BP1, Homo sapiens, UniProt Q13283)", "technique": "RNA Bind-n-Seq", "molecule type": "RNA", "matrix": "in vitro", "tested at": "1 µM", "setting": "whole 134-nt RNA, ends assumed", "with": "150 mM KCl", "relative to": "input library", "reading": "higher = stronger binding", "UniProt Q13283, sequence (whole entry, looked up)": "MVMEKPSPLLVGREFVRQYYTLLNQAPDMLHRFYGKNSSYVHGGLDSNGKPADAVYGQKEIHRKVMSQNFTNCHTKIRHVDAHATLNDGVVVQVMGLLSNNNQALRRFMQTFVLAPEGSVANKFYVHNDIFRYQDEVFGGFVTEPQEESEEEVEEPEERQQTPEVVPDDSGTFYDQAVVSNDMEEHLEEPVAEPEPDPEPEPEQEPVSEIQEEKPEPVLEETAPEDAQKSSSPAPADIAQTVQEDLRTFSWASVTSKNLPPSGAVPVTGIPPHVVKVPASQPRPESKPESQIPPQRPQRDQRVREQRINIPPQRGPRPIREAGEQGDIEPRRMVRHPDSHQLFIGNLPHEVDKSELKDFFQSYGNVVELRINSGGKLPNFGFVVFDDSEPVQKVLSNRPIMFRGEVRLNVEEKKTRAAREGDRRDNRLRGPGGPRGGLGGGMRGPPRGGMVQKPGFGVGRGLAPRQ"}
{"Oligonucleotide": "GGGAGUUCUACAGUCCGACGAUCUUCCUCAAGUCCUGUGCUACACAUCGUAUGUACCGAAUCGGAGGGAGGAGGAAAGUAUUAUGUUACGCCGUUCGGAUCUGCACUUCCAGCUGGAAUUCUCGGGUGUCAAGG", "log2 enrichment": -1.26}
{"Oligonucleotide": "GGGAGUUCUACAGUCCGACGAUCUGGGAGGUGGAUUUUGUUUAUUUUUUUAGCUCAUUUCCAGGGGUGGGAAUUGUUUUUUAAUAUGUGUCAUGAAUAAAGUUGUUUUUGAAAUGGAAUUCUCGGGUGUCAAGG", "log2 enrichment": 3.76}
{"Oligonucleotide": "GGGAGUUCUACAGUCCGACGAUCUGGCCCUGGUGGCAUGCGGGGAGGAAGAGGUGGCCUCAUGGAUCGUGGUGGUCCCGGUGGAAUGUUCAGAGGUGGCCGUGGUUGAGACAGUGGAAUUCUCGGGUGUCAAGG", "log2 enrichment": 3.78}
{"Oligonucleotide": "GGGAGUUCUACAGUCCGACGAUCCACAGACAACACGCACCCACACAGACACAGAGGGAAGGGGUUGGGAUGGCGACAGGGUGCACAGCAGGGCGGGGUAGGACCCCAGCCCCUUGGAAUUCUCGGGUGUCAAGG", "log2 enrichment": -0.506}
{"Oligonucleotide": "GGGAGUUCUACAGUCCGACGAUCUGGCCAUGGUGGCAUGCGGGGAGGAAGAGGUGGCCUCAUGGAUCGUGGUGGUCCCGGUGGAAUGUUCAGAGGUGGCCGUGGUGGAGACAGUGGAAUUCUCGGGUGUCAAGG", "log2 enrichment": 2.02}
{"Oligonucleotide": "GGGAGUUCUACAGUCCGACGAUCCAAGUCCUGUGCUACACAUCGUAUGUACCGAAUCGGGGAGGGGUUUGGGGAGGGGAAAGUAUUAUGUUACGCCGUUCGGAUCUGCACUUCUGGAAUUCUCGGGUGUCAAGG", "log2 enrichment": 3.49}
{"Oligonucleotide": "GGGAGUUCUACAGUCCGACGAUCCAAGUCCUGUGCUACACAUCGUAUGUACCGAAUCGGGGAAAGGGAAAGGGGAAAGGAAAGUAUUAUGUUACGCCGUUCGGAUCUGCACUUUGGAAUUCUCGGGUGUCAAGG", "log2 enrichment": -1.07}
{"Oligonucleotide": "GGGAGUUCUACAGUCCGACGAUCGUCCUGUGCUACACAUCGUAUGUACCGAAUCGGGGUUUGGGGUUUGGGGAAAAAGGGGAAAGUAUUAUGUUACGCCGUUCGGAUCUGCACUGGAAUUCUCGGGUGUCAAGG", "log2 enrichment": 2.86}
{"Oligonucleotide": "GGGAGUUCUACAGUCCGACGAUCACCAUGCAGGUGGGCAUCUUUGGGAAGUGGCGCAAGGGGGGGAUAGGGAGGGGGGUAACACUUUGGGAACAGGUGGUCCCAGGUCGUUUCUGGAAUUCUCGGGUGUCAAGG", "log2 enrichment": -1.29}
{"data": "Series 3", "target": "Centromere-binding protein 1, full length, N-terminal tag (CBF1, Saccharomyces cerevisiae, UniProt P17106, residues 1-351)", "technique": "protein-binding microarray", "molecule type": "double-stranded DNA, one strand shown", "matrix": "in vitro", "tested at": "0.8 µM", "setting": "whole 60-bp probe, no competitor", "reading": "higher = stronger binding", "UniProt P17106, sequence (whole entry, looked up)": "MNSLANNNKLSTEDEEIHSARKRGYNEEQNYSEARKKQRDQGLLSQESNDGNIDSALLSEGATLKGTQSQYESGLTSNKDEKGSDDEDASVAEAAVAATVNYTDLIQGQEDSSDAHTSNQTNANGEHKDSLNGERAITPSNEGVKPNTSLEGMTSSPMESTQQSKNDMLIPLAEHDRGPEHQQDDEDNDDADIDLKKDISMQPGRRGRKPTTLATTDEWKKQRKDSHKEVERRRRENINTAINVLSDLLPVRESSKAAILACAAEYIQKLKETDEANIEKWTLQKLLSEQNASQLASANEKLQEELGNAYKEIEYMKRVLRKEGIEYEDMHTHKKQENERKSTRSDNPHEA"}
{"Oligonucleotide": "CTAACATCAAAACTACACGTTTGGGTGGTACGGTTCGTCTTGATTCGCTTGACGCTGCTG", "fluorescence intensity [a.u.]": 502}
{"Oligonucleotide": "GAATGGTACGGCACCCACGGTACCTTACATTATTAGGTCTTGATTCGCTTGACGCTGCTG", "fluorescence intensity [a.u.]": 496}
{"Oligonucleotide": "GAATGGAGCTTTCGTCACCTTTTTTTGGCTTGTTAGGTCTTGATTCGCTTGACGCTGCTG", "fluorescence intensity [a.u.]": 507}
{"Oligonucleotide": "CTACCCTATACTATTCATGTGAGTGGTAGCATGTTCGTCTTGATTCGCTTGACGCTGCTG", "fluorescence intensity [a.u.]": 678}
{"Oligonucleotide": "GAAACAGCGCGCGTATTCGTGCGTCGGTAAATTTAGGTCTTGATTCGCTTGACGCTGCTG", "fluorescence intensity [a.u.]": 473}
{"Oligonucleotide": "GAATTAAATGAATCAGCTGAGACTTCCAGGGATTAGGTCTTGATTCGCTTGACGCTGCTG", "fluorescence intensity [a.u.]": 667}
{"Oligonucleotide": "GAATGTCAAAGCGCAAACGTGGGAAGTGACGATTAGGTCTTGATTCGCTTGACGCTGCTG", "fluorescence intensity [a.u.]": 534}
{"Oligonucleotide": "GAAAAGGTAATAGGGCACGGGAGGCCGTTGTTTTAGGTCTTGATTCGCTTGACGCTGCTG", "fluorescence intensity [a.u.]": 560}
{"Oligonucleotide": "GAACAGCTTCCACTACACCTGAGACTATCTCTCTAGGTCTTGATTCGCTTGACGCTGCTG", "fluorescence intensity [a.u.]": 563}
{"Oligonucleotide": "CTAACGAGTACCGCACACGTAGGCCAAAGCACTTTCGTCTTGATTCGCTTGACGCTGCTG", "fluorescence intensity [a.u.]": 520}
{"Oligonucleotide": "CCTAACTACTATAGCCACGTTTTATAGCTTCGTACAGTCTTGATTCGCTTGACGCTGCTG", "fluorescence intensity [a.u.]": 558}
{"Oligonucleotide": "CTAGGGTGTGTTGGTGGTGCTTGCGGTACTTGTTTCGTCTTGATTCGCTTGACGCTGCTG", "fluorescence intensity [a.u.]": 521}
{"Oligonucleotide": "TGTACGAAGCTATATATCGTGCTTATAGTAGTTAGGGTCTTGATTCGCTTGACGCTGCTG", "fluorescence intensity [a.u.]": 549}
{"Oligonucleotide": "GAACGTGATATACACCTGACCTATAATATTTCGTAGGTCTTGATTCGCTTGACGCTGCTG", "fluorescence intensity [a.u.]": 2610}
{"Oligonucleotide": "CTAATGTACACATTTCTGCTGATGTGTTTTTTTTTCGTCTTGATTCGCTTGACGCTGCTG", "fluorescence intensity [a.u.]": 503}
{"Oligonucleotide": "CCTAACTACTATATCTTCGTGGGATAGCTTCGTACAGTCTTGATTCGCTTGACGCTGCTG", "fluorescence intensity [a.u.]": 494}
{"Oligonucleotide": "GAAGGTTAAGAAAAACACCTGACAAATAATAATTAGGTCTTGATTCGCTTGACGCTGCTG", "fluorescence intensity [a.u.]": 1750}
{"Oligonucleotide": "CTAGTTTTGTGCATTAACGTGGCATATAATTAGTTCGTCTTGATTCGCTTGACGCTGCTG", "fluorescence intensity [a.u.]": 645}
{"Oligonucleotide": "CTAGCCCTCCTTCGGCACGCGGCTCGGAACATATTCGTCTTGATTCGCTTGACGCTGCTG", "fluorescence intensity [a.u.]": 527}
{"data": "Series 4", "target": "CRIPT, C-terminal peptide", "technique": "DHFR complementation, deep sequencing", "matrix": "yeast", "setting": "single substitutions, model-inferred values", "relative to": "wild type", "reading": "higher = weaker binding", "starting sequence": "ERBIN, PDZ domain 1 (human); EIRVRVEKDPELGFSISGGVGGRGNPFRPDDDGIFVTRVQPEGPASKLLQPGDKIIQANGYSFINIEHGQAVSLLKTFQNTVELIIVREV; partner TKNYKQTSV"}
{"Change": "G24S", "binding free energy change [kcal/mol]": 0.883}
{"Change": "Q79V", "binding free energy change [kcal/mol]": 0.0257}
{"Change": "Q79A", "binding free energy change [kcal/mol]": -0.0114}
{"Change": "D9I", "binding free energy change [kcal/mol]": 1.08}
{"Change": "G18D", "binding free energy change [kcal/mol]": 1.52}
{"Change": "K54V", "binding free energy change [kcal/mol]": 0.669}
{"Change": "L48F", "binding free energy change [kcal/mol]": 0.0165}
{"Change": "S15L", "binding free energy change [kcal/mol]": 0.885}
{"Change": "N80G", "binding free energy change [kcal/mol]": -0.212}
{"Change": "V36I", "binding free energy change [kcal/mol]": 0.0631}
{"Change": "F14K", "binding free energy change [kcal/mol]": 0.453}
{"Change": "I86M", "binding free energy change [kcal/mol]": 0.0556}
{"Change": "F35V", "binding free energy change [kcal/mol]": 0.833}
{"Change": "G13A", "binding free energy change [kcal/mol]": 1.17}
{"Change": "E67R", "binding free energy change [kcal/mol]": 0.0115}
{"Change": "G18K", "binding free energy change [kcal/mol]": 1.46}
{"Change": "I34A", "binding free energy change [kcal/mol]": 0.899}
{"Change": "Q70E", "binding free energy change [kcal/mol]": -0.0624}
{"Change": "G52Y", "binding free energy change [kcal/mol]": 1.02}
{"Change": "V82K", "binding free energy change [kcal/mol]": 1.63}
{"Change": "L75K", "binding free energy change [kcal/mol]": 1.52}
{"Change": "E11D", "binding free energy change [kcal/mol]": -0.364}
{"Change": "V20P", "binding free energy change [kcal/mol]": 1.45}
{"Change": "A71G", "binding free energy change [kcal/mol]": 0.198}
{"Change": "Q70W", "binding free energy change [kcal/mol]": 0.104}
{"note": "For quick reference, copied from above (series 1):"}
{"Oligonucleotide": "GACGGTATCGGTCTCCGGACGTGCTAG", "fitted relative affinity [z-score]": 0.385}
{"Oligonucleotide": "CACGGTATCCTTTTCCTGACGTGCTAG", "fitted relative affinity [z-score]": 1.53}
{"Oligonucleotide": "GAGGGTGTTCTTTTCTGTTGGTGCTAG", "fitted relative affinity [z-score]": 1.61}
{"Oligonucleotide": "TGAGGACTGGACACTGGGTTAGTGCTA", "fitted relative affinity [z-score]": -1.04}
{"Oligonucleotide": "GACGGTATCCTACTGCTGAAGTGCTAG", "fitted relative affinity [z-score]": 0.583}
{"Oligonucleotide": "GACGGTCTCCTTATCCTGTCGTGCTAG", "fitted relative affinity [z-score]": 1.71}
